Measured values from different studies.
Each numbered part is a random draw from the data of one study; scales do not carry over between parts.
Chain of UniProt P42336 (whole entry, unmodified, looked up): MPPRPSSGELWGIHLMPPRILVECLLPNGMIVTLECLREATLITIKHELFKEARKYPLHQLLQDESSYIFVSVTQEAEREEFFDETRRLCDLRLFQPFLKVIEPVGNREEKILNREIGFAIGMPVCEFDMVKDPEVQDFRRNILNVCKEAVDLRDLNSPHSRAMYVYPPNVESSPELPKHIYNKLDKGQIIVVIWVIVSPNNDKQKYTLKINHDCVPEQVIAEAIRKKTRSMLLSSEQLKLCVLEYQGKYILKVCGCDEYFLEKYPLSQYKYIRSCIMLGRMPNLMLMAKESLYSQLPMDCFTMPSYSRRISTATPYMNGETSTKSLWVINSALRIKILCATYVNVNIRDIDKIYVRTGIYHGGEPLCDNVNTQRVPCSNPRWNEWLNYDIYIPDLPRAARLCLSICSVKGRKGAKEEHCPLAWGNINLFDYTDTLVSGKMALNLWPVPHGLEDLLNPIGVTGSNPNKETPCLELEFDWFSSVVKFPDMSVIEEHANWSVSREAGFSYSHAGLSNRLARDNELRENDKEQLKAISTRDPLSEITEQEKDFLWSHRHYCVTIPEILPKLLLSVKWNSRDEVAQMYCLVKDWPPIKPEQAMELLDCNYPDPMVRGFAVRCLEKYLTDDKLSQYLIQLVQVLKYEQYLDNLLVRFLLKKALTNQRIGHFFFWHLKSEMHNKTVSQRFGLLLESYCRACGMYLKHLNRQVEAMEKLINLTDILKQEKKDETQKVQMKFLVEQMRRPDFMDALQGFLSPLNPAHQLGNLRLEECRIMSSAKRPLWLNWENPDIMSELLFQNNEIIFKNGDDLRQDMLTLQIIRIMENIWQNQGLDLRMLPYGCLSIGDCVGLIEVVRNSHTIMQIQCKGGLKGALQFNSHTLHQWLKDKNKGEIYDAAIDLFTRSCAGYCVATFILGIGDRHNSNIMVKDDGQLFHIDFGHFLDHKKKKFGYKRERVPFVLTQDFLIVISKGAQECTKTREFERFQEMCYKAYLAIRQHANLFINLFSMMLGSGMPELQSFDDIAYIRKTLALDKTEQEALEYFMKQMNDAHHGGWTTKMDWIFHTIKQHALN
Chain of UniProt Q9UK32 (whole entry, looked up): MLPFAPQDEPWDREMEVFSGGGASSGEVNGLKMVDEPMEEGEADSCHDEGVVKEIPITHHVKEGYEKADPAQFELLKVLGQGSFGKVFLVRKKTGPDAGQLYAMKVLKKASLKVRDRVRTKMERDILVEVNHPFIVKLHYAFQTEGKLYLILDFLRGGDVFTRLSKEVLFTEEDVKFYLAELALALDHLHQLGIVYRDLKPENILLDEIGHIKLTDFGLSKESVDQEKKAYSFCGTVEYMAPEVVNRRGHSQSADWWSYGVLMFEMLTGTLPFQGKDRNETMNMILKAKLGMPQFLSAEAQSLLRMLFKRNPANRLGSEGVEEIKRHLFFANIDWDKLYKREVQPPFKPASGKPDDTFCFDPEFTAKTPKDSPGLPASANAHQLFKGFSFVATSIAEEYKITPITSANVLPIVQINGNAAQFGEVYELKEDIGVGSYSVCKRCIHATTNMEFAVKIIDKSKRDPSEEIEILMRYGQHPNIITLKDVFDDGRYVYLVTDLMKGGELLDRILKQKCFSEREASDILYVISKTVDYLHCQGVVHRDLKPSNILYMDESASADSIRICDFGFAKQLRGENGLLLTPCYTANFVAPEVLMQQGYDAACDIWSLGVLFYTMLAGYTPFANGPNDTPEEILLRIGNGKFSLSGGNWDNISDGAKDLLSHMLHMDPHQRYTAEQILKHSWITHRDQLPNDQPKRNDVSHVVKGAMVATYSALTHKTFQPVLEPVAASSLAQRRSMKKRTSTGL
Chain of UniProt P42681 (whole entry, looked up): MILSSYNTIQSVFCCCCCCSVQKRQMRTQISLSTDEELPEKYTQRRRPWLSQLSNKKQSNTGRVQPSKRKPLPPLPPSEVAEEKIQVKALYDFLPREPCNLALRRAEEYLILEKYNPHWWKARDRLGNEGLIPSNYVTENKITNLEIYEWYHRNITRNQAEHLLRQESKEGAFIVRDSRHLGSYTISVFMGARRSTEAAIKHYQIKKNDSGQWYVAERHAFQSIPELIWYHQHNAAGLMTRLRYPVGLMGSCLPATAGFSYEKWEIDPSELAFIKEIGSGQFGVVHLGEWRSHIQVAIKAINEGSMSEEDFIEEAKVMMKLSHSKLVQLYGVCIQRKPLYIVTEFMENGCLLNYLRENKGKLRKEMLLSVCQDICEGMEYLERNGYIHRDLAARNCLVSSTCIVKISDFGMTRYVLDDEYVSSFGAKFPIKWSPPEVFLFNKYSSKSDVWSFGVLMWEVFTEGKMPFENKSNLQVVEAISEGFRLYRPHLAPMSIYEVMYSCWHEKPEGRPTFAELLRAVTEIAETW
Chain of UniProt O94806 (whole entry, looked up): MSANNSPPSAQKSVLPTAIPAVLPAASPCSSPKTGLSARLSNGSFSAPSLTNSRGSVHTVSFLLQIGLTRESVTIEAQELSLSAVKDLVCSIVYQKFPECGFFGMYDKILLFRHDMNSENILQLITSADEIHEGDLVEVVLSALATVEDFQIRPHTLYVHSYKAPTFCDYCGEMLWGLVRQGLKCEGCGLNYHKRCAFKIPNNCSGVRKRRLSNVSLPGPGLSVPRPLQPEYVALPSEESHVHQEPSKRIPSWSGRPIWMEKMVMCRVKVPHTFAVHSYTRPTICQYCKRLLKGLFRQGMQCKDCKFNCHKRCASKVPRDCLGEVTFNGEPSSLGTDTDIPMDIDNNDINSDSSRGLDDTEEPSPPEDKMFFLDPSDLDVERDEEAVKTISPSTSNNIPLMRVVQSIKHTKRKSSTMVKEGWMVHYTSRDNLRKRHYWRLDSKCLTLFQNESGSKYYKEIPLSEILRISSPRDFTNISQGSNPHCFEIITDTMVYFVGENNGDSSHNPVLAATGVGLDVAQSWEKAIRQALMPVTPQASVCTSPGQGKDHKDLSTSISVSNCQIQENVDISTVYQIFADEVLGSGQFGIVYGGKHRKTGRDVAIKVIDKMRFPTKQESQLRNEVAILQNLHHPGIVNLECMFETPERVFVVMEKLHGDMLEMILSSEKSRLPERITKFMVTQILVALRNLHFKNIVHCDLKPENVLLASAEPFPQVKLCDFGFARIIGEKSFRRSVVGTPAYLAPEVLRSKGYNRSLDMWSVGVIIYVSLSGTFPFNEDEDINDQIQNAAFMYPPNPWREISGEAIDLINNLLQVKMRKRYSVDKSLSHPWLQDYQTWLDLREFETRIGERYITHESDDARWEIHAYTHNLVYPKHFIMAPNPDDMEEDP
Chain of UniProt Q9NSY1 (whole entry, looked up): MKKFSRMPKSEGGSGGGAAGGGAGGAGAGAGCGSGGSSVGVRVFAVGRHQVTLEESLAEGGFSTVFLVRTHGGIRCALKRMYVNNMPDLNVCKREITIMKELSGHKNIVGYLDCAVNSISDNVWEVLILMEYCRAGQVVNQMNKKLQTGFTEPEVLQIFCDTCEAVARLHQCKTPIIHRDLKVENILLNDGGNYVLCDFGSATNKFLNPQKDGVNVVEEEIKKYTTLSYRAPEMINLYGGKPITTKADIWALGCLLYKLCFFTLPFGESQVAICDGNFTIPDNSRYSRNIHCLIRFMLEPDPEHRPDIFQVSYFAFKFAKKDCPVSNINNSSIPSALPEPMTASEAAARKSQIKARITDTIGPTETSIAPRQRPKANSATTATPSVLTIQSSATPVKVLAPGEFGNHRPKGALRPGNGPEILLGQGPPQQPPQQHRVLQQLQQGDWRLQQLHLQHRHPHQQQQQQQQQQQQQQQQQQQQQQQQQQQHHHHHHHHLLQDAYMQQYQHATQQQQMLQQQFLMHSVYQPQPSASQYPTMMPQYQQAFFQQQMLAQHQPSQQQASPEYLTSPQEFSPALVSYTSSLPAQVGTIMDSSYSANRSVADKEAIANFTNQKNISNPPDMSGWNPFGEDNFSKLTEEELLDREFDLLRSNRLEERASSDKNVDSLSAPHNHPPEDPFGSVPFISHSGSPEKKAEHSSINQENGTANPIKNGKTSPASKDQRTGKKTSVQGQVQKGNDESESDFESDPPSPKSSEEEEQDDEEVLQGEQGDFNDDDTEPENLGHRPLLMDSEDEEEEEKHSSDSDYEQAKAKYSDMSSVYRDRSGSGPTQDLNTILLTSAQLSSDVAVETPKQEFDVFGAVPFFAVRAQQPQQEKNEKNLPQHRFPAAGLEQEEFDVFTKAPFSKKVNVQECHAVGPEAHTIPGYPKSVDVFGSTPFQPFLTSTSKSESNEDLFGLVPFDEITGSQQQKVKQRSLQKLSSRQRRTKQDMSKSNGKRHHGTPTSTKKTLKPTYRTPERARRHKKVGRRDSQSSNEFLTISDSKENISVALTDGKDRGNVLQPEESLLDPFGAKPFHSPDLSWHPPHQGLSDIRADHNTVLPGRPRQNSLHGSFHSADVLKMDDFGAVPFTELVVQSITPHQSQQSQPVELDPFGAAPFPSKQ
Chain of UniProt P49841 (whole entry, looked up): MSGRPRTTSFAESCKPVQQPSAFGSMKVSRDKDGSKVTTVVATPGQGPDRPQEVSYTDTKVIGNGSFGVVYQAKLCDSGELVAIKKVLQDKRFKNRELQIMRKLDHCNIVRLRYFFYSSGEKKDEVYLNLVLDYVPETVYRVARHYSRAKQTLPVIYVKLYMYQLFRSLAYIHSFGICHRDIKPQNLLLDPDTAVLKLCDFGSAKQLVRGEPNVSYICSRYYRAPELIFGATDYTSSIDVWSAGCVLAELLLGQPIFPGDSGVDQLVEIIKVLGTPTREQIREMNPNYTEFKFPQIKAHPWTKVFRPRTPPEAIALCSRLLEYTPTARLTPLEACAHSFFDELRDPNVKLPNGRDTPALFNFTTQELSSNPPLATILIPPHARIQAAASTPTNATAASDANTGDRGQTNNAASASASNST

Series 1
Target: Serine/threonine-protein kinase 3 (STK3, Homo sapiens, UniProt Q13188)
Observed: enzyme activity
Mode: inhibitor
Concentration: 0.5 µM
Reference: control
Endpoint: remaining activity
Residues (Q13188 1-491): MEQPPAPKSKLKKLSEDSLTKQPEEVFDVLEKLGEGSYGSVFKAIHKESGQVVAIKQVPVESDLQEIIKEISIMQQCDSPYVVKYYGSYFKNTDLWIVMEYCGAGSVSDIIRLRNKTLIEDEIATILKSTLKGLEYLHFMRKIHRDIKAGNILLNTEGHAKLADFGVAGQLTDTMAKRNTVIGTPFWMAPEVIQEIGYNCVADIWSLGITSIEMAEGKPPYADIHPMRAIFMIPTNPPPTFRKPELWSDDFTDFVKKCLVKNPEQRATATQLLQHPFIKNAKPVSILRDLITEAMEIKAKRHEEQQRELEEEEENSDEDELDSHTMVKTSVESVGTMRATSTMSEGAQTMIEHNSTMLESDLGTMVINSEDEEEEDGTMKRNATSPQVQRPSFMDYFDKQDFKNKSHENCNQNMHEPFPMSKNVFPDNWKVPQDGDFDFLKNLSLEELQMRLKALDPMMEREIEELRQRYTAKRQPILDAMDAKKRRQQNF
N#CC(C#N)=C(N)/C(C#N)=C/c1ccc(O)cc1: 95.2%
CNC(=O)c1cc(Oc2ccc(NC(=O)Nc3ccc(Cl)c(C(F)(F)F)c3)cc2)ccn1: 96.9%
C#Cc1cccc(Nc2ncnc3cc(OCCOC)c(OCCOC)cc23)c1: 94.9%
COc1cc2nccc(Oc3ccc(NC(=S)NC(=O)c4ccccc4C)cc3)c2cc1OC: 86%
OCC(O)CCON=C1C(c2c(O)[nH]c3ccccc23)=Nc2ccccc21 (stereo not drawn): 4.81%
COc1ccc(OC)c2c(=S)c3ccccc3[nH]c12: 104%
Cc1nc(-c2ccccc2)c(-c2ccncc2)o1: 104%
COc1ccc(C(=O)Nc2sc3c(c2C(N)=O)CCCC3)cc1OC: 99.6%
Cc1cccc(-c2[nH]c(C(C)(C)C)nc2-c2ccc3c(c2)OCO3)n1: 97.7%
Cn1c2ccccc2c2c3c(c4c5ccccc5n(CCC#N)c4c21)CNC3=O: 3.07%
CCOC(=O)c1c(C)[nH]c(/C=C2\C(=O)Nc3ccccc32)c1C: 73.7%
Nc1ncnc2n[nH]c(Nc3ccc(F)cc3)c12: 90.8%
CN(C)c1ccc(C=C2C(=O)Nc3ccccc32)cc1: 100%
O=C1NC(=O)C(c2cn(CCCn3ccnc3)c3ccccc23)=C1Nc1ccccc1: 52%
O=C(CCCc1ccc(-c2ccccc2F)cc1)Nc1ccc(O)cc1: 94.8%

Series 2
SMILES: O=C(Nc1cccnn1)N1CC(C/C=C/c2cncc(Oc3ccc(C(F)(F)F)cn3)n2)C1
Technique: competition with immobilised ligand
Concentration: 1 µM
Endpoint: remaining binding
Epidermal growth factor receptor (EGFR, Homo sapiens, UniProt P00533, del746-750); cell-free assay: 85%
Tyrosine-protein kinase TXK (TXK, Homo sapiens, UniProt P42681); binding: 100%
Myosin light chain kinase family member 4 (MYLK4, Homo sapiens, UniProt Q86YV6); cell-free assay: 100%
Phosphatidylinositol 4,5-bisphosphate 3-kinase catalytic subunit alpha isoform (PIK3CA, Homo sapiens, UniProt P42336, Q546K); cell-free assay: 92%
Mitogen-activated protein kinase kinase kinase 6 (MAP3K6, Homo sapiens, UniProt O95382); cell-free assay: 60%
LIM domain kinase 2 (LIMK2, Homo sapiens, UniProt P53671); cell-free assay: 95%
Receptor-type tyrosine-protein kinase FLT3 (FLT3, Homo sapiens, UniProt P36888, D835V/ITD); cell-free assay: 68%
Aurora kinase C (AURKC, Homo sapiens, UniProt Q9UQB9); cell-free assay: 100%
Hepatocyte growth factor receptor (MET, Homo sapiens, UniProt P08581, M1250T); cell-free assay: 100%
Serine/threonine-protein kinase D3 (PRKD3, Homo sapiens, UniProt O94806); cell-free assay: 100%
BMP-2-inducible protein kinase (BMP2K, Homo sapiens, UniProt Q9NSY1); cell-free assay: 100%
Serine/threonine-protein kinase 36 (STK36, Homo sapiens, UniProt Q9NRP7); cell-free assay: 100%
Serine/threonine-protein kinase 32C (STK32C, Homo sapiens, UniProt Q86UX6); cell-free assay: 100%
Ribosomal protein S6 kinase alpha-6, C-terminal kinase domain (RPS6KA6, Homo sapiens, UniProt Q9UK32); cell-free assay: 89%
Epidermal growth factor receptor (EGFR, Homo sapiens, UniProt P00533, T790M); cell-free assay: 100%
Receptor-type tyrosine-protein kinase FLT3 (FLT3, Homo sapiens, UniProt P36888, D835H); cell-free assay: 100%
Inhibitor of nuclear factor kappa-B kinase subunit alpha (CHUK, Homo sapiens, UniProt O15111); cell-free assay: 69%
Serine/threonine-protein kinase SBK1 (SBK1, Homo sapiens, UniProt Q52WX2); cell-free assay: 89%
Mitogen-activated protein kinase kinase kinase 4 (MAP3K4, Homo sapiens, UniProt Q9Y6R4); cell-free assay: 100%
Phosphatidylinositol 4,5-bisphosphate 3-kinase catalytic subunit alpha isoform (PIK3CA, Homo sapiens, UniProt P42336, E542K); cell-free assay: 88%
Glycogen synthase kinase-3 beta (GSK3B, Homo sapiens, UniProt P49841); cell-free assay: 77%
Non-receptor tyrosine-protein kinase TYK2, JH1 (TYK2, Homo sapiens, UniProt P29597); cell-free assay: 82%
Mitogen-activated protein kinase kinase kinase kinase 2 (MAP4K2, Homo sapiens, UniProt Q12851); cell-free assay: 80%
Myosin light chain kinase 2, skeletal/cardiac muscle (MYLK2, Homo sapiens, UniProt Q9H1R3); cell-free assay: 87%

Series 3
Target: Interferon regulatory factor 5, full length, phosphomimetic (IRF5, Homo sapiens, UniProt Q13568-2, residues 1-514, K96S/S451D/S453D/S456D/S462D)
Technique: protein-binding microarray
Molecule type: double-stranded DNA, one strand shown
Sample: in vitro
Concentration: 250 nM
Setting: 60-bp whole probe
With: salmon DNA 0.4 mg/ml
Reference: random background probes
Reading: higher = stronger binding
Endpoint: log fluorescence
All sequences stand within: GCCTAGCAC … GTCTTGATTCGCTTGACGCTGCTG
AGAAACTGTGAGGAGGGGAAGTGCTAG: 1.81 z-score
TTAGATTTCGGGTACCGATTAGTGCTA: 5.08 z-score
ATACTGAGAAAGCACTGGACGTGCTAG: 0.128 z-score
TTCTCTTTTATTTTTTTTATGTGCTAG: 1.78 z-score
TCATACTTCACTCTCTGACTGTGCTAG: 0.545 z-score
TTAGATTTCAGTATCGATTTGTGCTAG: 7.91 z-score
GACGGTTTAGACTATCGGGACGTGCTA: 1.38 z-score
CTAATTTCCATTTTCTAAATGTGCTAG: 2.19 z-score

Single results of other studies
Technique: cross-linking MS
SEPTIN7 (Homo sapiens, UniProt Q16181) — interaction screen (SEPTIN11 (Homo sapiens, UniProt Q9NVA2); hits only): cross-linked
SF3A3 (Homo sapiens, UniProt Q12874) — interaction screen (SF3A1 (Homo sapiens, UniProt Q15459); hits only): cross-linked
MCM2 (Homo sapiens, UniProt P49736) — cross-linked residues (MCM6 (Homo sapiens, UniProt Q14566); cell fractions; with: DHSO): D856 to D592
YBX1 (Homo sapiens, UniProt P67809) — cross-linked residues (C1QBP (Homo sapiens, UniProt Q07021); cell fractions; with: DSSO): K296 to K104

Repeated from above (series 2):
Aurora kinase C (AURKC, Homo sapiens, UniProt Q9UQB9); cell-free assay: 100%
Serine/threonine-protein kinase 36 (STK36, Homo sapiens, UniProt Q9NRP7); cell-free assay: 100%
Glycogen synthase kinase-3 beta (GSK3B, Homo sapiens, UniProt P49841); cell-free assay: 77%
Mitogen-activated protein kinase kinase kinase kinase 2 (MAP4K2, Homo sapiens, UniProt Q12851); cell-free assay: 80%
BMP-2-inducible protein kinase (BMP2K, Homo sapiens, UniProt Q9NSY1); cell-free assay: 100%
Epidermal growth factor receptor (EGFR, Homo sapiens, UniProt P00533, del746-750); cell-free assay: 85%
Myosin light chain kinase family member 4 (MYLK4, Homo sapiens, UniProt Q86YV6); cell-free assay: 100%
